Assay results pooled from the literature.
Compare with care: the assays were run in different laboratories. ± marks the error that the study gave.
MDM2 residues 25-109: E3 ubiquitin-protein ligase Mdm2, residues 25-109 (MDM2, Homo sapiens, UniProt Q00987)
MDM2 N-terminal domain 17-125: E3 ubiquitin-protein ligase Mdm2, N-terminal domain 17-125 (MDM2, Homo sapiens, UniProt Q00987)
MDM2: E3 ubiquitin-protein ligase Mdm2 (MDM2, Homo sapiens, UniProt Q00987)
MDM2 L33E L33E; with p53: E3 ubiquitin-protein ligase Mdm2, L33E; with p53 (MDM2, Homo sapiens, UniProt Q00987, L33E)

| SMILES | target | test | system | conditions | quantity | value |
| --- | --- | --- | --- | --- | --- | --- |
| CC(C)C[C@H](NC(=O)[C@H](CCC(N)=O)NC(=O)[C@@H]1CSSC[C@@H]2NC(=O)[C@H](CC(N)=O)NC(=O)[C@@H](N)CSSC[C@H](NC(=O)[C@H](Cc3ccccc3)NC(=O)[C@H](C)NC(=O)[C@H]([C@@H](C)O)NC(=O)[C@H](CCC(=O)O)NC(=O)[C@@H]3CCCN3C(=O)[C@H](C)NC(=O)[C@H](CCCCN)NC2=O)C(=O)N[C@@H](C)C(=O)N[C@@H](Cc2ccc(O)cc2)C(=O)N[C@@H](Cc2c[nH]c3ccccc23)C(=O)N1)C(=O)N[C@@H](Cc1c[nH]cn1)C(N)=O | MDM2 residues 25-109 | SPR competition | – | with: immobilised p53 peptide | Kd | 83.2 ± 8.4 nM |
| CC(=O)N(CC(=O)N(C)[C@@H](C)C(=O)N(Cc1c[nH]c2cc(Cl)ccc12)[C@@H](C)C(=O)N(C)[C@@H](C)C(=O)N(CCC(C)(C)C)[C@@H](C)C(=O)N1CCNCC1)Cc1ccccc1 | MDM2 N-terminal domain 17-125 | binding, fluorescence anisotropy | PBS with Tween | 25 °C, fluorescein-labelled peptoid, 10 nM | Kd | 140 nM |
| CCOC(=O)[C@@H]1Cc2c(cc([N+](=O)[O-])cc2[N+](=O)[O-])[C@@H](O)[C@@]12C(=O)Nc1ccc(Cl)cc12 (single isomer, unassigned) | MDM2 | – | – | – | IC50 | 1500 ± 200 nM |
| CC(C)C[C@H](NC(=O)[C@H](CCC(N)=O)NC(=O)[C@@H]1CSSC[C@@H]2NC(=O)[C@H](CC(N)=O)NC(=O)[C@@H](N)CSSC[C@H](NC(=O)[C@H](Cc3ccccc3)NC(=O)[C@H](C)NC(=O)[C@H]([C@@H](C)O)NC(=O)[C@H](CCC(=O)O)NC(=O)[C@@H]3CCCN3C(=O)[C@H](C)NC(=O)[C@H](CCCCN)NC2=O)C(=O)N[C@@H](C)C(=O)N[C@@H](Cc2ccc(O)cc2)C(=O)N[C@@H](Cc2c[nH]c3ccccc23)C(=O)N1)C(N)=O | MDM2 residues 25-109 | SPR competition | – | with: immobilised p53 peptide | Kd | 17.7 ± 4 nM |
| CC(=O)N(Cc1ccccc1)[C@@H](C)C(=O)N(C)[C@@H](C)C(=O)N(Cc1c[nH]c2cc(Cl)ccc12)[C@@H](C)C(=O)N(C)[C@@H](C)C(=O)N(CCC(C)(C)C)[C@@H](C)C(=O)N1CCNCC1 | MDM2 | binding, ITC | – | – | Kd | 17.5 nM |
| CC(C)Oc1cc(C(=O)NCC(=O)O)ccc1NC(=O)[C@H](Cc1ccccc1)NC(=O)c1ccc(N)c(OCc2ccccc2)c1 | MDM2 L33E L33E; with p53 | fluorescence anisotropy competition | – | pH 7.5 | IC50 | 21200 ± 2500 nM |
| CC(C)C[C@@H](C(N)=O)N1CCN(C(=O)[C@H](Cc2c[nH]c3ccccc23)N2CCN[C@@H](CCCCN)C2=O)[C@@H](Cc2ccccc2)C1=O | E3 ubiquitin-protein ligase Mdm2, N-terminal domain (MDM2, Homo sapiens, UniProt Q00987) | binding, competitive fluorescence polarization | – | with: fluorescein-p53 peptide probe | Kd | ≥ 200000 nM |
| CC(C)Oc1cc(NC(=O)[C@@H](Cc2c[nH]c3ccccc23)NC(=O)c2ccc(N)c(OCc3ccccc3)c2)ccc1C(=O)NCC(=O)O | MDM2 L33E L33E; with p53 | fluorescence anisotropy competition | – | pH 7.5 | IC50 | 25200 ± 1400 nM |
| CCOC(=O)[C@@H]1Cc2c(cc([N+](=O)[O-])cc2[N+](=O)[O-])[C@@H](O)[C@@]12C(=O)Nc1ccc(Br)cc12 | MDM2 | – | – | – | IC50 | 1300 ± 400 nM |
| CCOC(=O)Nc1ccc2c(c1)CN1C(=S)N(c3ccc(C#N)c(C(F)(F)F)c3)C(=O)C1C2 (stereo not shown) | MDM2 | binding, SPR | – | – | Kd | 256 nM |
| CC(C)Oc1cc(NC(=O)[C@@H](Cc2ccccc2)NC(=O)c2ccc(N)c(OCc3ccccc3)c2)ccc1C(=O)NCC(=O)O | MDM2 L33E L33E; with p53 | fluorescence anisotropy competition | – | pH 7.5 | IC50 | 9200 ± 400 nM |
| CC(=O)N(Cc1ccccc1)[C@@H](C)C(=O)N(C)CC(=O)N(Cc1c[nH]c2cc(Cl)ccc12)[C@@H](C)C(=O)N(C)CC(=O)N(CCC(C)(C)C)[C@@H](C)C(=O)N1CCNCC1 | MDM2 N-terminal domain 17-125 | binding, fluorescence anisotropy | PBS with Tween | 25 °C, fluorescein-labelled peptoid, 10 nM | Kd | 750 nM |
| CC(=O)N[C@@H](CCCCN)C(=O)N[C@@H](CCCCN)C(=O)N[C@@H](CCCCN)C(=O)NCCCCCC(=O)N[C@H](C(=O)N[C@@H](CO)C(=O)N[C@@H](Cc1ccccc1)C(=O)N[C@]1(C)CCCCCCCCCCC[C@@](C)(C(=O)N[C@@H](CCC(=O)O)C(=O)N[C@@H](CC(N)=O)C(=O)N[C@@H](Cc2ccccc2)C(N)=O)NC(=O)[C@H](CC(C)C)NC(=O)[C@H](CC(C)C)NC(=O)[C@H](C)NC(=O)[C@H](Cc2c[nH]c3ccccc23)NC(=O)[C@H](Cc2ccc(O)cc2)NC(=O)[C@H](CCC(=O)O)NC1=O)[C@@H](C)O | MDM2 | cell-free assay, FP | – | pH 7.4 | Kd | 227 nM |

For quick reference, copied from above:
| SMILES | target | test | system | conditions | quantity | value |
| --- | --- | --- | --- | --- | --- | --- |
| CCOC(=O)[C@@H]1Cc2c(cc([N+](=O)[O-])cc2[N+](=O)[O-])[C@@H](O)[C@@]12C(=O)Nc1ccc(Cl)cc12 (single isomer, unassigned) | MDM2 | – | – | – | IC50 | 1500 ± 200 nM |
